Published values collected from several papers.
± marks the error that the study gave.
Fibroin-modulator-binding protein-1: Fibroin-modulator-binding protein-1 99-193 (Bombyx mori, UniProt Q5FBS0)
T1: Yku70/Yku80 (Saccharomyces cerevisiae); chain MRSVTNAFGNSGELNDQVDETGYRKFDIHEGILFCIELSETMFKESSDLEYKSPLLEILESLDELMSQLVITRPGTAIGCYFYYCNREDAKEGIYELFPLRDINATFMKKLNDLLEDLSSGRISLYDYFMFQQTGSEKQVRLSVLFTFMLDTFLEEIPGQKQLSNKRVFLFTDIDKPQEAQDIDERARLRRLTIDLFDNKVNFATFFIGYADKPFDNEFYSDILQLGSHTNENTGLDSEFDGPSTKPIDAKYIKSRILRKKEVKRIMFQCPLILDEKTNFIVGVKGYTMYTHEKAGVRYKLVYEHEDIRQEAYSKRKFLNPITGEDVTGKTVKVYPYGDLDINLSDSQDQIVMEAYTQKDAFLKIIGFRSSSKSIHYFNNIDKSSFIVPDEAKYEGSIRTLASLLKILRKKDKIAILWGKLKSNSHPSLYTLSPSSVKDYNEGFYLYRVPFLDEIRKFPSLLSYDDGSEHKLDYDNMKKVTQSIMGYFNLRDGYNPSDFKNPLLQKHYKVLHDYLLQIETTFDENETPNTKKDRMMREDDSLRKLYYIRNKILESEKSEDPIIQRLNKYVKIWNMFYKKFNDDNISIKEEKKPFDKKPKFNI; chain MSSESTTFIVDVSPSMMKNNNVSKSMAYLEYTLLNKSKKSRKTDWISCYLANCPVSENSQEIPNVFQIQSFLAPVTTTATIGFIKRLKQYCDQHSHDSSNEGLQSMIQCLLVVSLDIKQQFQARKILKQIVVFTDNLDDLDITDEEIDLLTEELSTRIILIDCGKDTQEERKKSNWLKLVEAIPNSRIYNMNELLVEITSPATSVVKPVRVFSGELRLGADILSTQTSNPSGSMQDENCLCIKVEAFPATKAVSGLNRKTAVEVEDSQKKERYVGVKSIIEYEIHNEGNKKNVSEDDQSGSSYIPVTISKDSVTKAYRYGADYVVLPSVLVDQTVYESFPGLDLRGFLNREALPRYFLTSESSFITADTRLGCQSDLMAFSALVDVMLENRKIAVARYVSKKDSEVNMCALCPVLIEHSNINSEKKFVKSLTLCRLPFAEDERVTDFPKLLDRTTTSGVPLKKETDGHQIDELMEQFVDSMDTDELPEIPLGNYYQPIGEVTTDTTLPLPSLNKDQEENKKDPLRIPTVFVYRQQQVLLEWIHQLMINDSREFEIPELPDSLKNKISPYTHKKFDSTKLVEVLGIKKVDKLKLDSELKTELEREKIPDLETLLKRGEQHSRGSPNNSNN
Chain of UniProt Q6R0H1 (whole entry, looked up): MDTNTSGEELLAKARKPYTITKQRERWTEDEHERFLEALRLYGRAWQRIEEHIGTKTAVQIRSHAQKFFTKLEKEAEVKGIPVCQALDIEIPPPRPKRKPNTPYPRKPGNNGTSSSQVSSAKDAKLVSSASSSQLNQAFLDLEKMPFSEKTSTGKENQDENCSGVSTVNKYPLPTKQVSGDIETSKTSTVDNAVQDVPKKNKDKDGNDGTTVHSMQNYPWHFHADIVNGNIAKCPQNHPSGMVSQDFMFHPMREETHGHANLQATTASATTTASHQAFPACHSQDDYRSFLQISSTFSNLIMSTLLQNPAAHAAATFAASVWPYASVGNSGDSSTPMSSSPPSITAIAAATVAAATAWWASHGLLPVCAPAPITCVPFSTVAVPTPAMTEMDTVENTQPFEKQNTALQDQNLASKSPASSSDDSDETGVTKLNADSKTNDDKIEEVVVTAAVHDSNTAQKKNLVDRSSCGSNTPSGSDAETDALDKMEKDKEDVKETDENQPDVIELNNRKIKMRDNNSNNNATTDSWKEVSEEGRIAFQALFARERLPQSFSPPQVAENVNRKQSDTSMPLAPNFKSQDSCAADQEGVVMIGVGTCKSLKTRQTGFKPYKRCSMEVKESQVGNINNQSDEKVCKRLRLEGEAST
Chain of UniProt P32787 (whole entry, looked up): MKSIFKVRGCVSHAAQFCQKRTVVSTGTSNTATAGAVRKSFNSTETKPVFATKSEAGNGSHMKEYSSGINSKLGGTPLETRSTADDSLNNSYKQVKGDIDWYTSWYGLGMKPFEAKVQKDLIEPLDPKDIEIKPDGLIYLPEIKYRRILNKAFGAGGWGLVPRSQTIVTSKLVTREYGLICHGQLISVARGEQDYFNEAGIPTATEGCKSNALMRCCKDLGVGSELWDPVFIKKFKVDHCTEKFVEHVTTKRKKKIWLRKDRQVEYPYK
Chain of UniProt O75469 (whole entry, looked up): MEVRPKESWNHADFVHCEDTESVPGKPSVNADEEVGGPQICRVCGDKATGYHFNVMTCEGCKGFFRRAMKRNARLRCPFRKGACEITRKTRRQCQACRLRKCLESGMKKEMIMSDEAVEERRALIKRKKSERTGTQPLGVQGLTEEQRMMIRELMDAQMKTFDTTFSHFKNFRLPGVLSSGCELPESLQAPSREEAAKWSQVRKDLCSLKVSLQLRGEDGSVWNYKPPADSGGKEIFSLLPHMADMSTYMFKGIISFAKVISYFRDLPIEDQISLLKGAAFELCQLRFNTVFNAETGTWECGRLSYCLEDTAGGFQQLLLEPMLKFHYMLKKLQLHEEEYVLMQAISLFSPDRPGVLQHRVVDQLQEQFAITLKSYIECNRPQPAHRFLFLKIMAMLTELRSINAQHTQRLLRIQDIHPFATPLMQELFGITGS
Chain of UniProt Q15717 (whole entry, looked up): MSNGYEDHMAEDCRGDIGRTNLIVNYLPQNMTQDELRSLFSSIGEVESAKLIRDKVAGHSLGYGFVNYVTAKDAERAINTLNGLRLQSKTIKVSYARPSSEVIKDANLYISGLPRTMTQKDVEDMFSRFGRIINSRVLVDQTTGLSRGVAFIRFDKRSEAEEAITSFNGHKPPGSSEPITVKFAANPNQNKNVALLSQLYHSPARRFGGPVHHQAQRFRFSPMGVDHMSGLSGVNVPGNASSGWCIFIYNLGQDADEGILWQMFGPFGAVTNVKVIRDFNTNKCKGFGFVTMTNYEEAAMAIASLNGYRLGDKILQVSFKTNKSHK
Chain of UniProt O24646 (whole entry, looked up): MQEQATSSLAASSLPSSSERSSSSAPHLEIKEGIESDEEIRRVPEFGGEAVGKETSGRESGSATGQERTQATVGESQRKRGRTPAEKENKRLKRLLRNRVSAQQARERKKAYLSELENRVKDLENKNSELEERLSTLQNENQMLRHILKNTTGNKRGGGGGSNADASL
Chain of UniProt Q4VGL6 (whole entry, looked up): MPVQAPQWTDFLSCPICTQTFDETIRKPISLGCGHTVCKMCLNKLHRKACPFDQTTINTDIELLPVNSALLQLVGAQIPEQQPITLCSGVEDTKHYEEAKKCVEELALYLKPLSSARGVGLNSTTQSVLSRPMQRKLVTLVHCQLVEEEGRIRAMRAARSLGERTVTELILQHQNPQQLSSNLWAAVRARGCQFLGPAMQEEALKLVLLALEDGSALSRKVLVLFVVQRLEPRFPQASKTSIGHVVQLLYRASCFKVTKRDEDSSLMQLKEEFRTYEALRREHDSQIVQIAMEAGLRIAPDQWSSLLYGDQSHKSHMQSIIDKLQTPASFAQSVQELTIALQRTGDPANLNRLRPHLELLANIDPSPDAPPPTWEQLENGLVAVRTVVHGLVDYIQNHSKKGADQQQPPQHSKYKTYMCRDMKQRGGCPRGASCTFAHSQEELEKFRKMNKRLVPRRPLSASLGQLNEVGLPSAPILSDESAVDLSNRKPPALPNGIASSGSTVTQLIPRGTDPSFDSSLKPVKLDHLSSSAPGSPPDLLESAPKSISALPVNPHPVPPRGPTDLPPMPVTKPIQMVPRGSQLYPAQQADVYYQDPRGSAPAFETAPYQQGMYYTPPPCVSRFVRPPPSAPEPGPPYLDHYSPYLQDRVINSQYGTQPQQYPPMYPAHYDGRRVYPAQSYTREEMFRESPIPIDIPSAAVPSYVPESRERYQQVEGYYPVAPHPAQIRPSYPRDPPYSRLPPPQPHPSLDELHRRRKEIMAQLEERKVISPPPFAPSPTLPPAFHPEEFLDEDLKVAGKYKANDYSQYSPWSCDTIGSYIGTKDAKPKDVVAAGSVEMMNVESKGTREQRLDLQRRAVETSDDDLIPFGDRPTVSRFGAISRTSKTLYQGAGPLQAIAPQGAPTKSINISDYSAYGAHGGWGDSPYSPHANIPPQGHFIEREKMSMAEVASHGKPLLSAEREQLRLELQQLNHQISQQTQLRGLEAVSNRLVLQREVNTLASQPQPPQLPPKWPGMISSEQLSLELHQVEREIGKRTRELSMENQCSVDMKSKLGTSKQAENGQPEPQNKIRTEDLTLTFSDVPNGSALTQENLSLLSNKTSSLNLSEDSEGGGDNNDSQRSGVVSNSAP
Chain of UniProt Q92674 (whole entry, looked up): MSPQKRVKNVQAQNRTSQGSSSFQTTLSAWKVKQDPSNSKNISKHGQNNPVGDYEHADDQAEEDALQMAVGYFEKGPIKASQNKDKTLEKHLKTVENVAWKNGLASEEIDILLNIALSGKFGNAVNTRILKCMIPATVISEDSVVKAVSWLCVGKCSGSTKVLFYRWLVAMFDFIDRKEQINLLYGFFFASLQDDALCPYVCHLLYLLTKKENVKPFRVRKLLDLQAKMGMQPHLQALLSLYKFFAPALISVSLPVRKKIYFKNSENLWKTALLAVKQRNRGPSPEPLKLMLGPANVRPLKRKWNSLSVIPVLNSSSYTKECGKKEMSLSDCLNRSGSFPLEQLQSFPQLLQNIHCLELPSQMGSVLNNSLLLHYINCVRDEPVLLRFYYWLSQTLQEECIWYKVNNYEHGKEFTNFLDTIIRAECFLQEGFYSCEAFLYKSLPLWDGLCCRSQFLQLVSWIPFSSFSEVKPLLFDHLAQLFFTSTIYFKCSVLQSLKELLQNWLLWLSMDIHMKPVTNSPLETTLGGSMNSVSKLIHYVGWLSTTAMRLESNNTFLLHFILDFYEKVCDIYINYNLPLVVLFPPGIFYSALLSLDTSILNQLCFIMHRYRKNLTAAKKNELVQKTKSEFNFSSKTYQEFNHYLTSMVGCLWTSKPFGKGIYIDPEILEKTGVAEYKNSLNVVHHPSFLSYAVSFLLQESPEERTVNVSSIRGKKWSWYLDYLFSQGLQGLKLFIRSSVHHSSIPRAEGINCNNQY
Chain of UniProt Q6Z156 (whole entry, looked up): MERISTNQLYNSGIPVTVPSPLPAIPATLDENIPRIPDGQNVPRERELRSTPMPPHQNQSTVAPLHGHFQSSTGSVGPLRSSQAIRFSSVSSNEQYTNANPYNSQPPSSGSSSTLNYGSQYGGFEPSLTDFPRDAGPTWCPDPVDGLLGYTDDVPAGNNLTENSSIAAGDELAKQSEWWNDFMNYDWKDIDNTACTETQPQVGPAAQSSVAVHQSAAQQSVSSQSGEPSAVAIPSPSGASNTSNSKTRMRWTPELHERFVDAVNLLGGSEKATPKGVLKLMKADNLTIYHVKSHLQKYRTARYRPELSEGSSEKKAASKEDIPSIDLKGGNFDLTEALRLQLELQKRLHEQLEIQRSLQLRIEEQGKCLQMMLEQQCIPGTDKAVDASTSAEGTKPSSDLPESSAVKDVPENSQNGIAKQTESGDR
Chain of UniProt Q9NUX5 (whole entry, unmodified, looked up): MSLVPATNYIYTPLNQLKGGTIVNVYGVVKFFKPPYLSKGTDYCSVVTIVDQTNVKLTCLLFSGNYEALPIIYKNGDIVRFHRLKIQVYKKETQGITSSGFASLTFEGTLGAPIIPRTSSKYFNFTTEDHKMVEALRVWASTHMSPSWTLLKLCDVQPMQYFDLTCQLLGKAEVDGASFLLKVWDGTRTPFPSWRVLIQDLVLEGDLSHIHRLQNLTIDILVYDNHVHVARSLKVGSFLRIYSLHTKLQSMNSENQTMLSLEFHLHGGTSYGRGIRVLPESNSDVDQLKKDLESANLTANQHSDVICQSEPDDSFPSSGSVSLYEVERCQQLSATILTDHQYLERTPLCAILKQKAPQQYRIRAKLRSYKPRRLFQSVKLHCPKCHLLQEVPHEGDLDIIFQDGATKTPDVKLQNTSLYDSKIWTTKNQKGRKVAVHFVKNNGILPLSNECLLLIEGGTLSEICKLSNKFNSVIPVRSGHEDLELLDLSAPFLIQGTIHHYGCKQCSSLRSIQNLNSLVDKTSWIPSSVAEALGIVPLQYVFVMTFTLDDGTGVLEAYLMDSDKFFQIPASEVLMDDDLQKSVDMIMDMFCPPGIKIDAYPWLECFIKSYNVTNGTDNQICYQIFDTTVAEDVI
Chain of UniProt P0AGE0 (whole entry, looked up): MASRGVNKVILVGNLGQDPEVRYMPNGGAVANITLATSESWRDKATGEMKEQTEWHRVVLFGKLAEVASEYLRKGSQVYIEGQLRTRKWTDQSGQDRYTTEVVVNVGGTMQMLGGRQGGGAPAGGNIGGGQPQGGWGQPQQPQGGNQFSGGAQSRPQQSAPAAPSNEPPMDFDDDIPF

Under binding, `ATTATTCCCGAGTCAATTTCAAATGCT (dsDNA)` is recorded as “binds” (WRKY domain-containing protein 1-296 (Camellia sinensis, UniProt A0A4S4EXI7); EMSA; double-stranded DNA, one strand shown).
For `ATTTTTA (ssDNA)`, binding read “binds” (ELAVL1 2-99 (Homo sapiens, UniProt Q15717); BLI; single-stranded DNA; pH 5.5).
`TGTCAGGCAAGAATTAGAGACAAGCGGTCAGCAGAGCCTCAGTGCTGATCGTCGGAGCTTGGGAGCAGGA (dsDNA)` — result for binding: “binds” (MAFB full length assumed (Homo sapiens, UniProt Q9Y5Q3); EMSA; double-stranded DNA, one strand shown).
`CTCTCTCCATTCCCTCCTCCTTTATTTCCTCTCTCCTCTCTCCCCTC (dsDNA)`: binding “binds” (C2H2-type domain-containing protein full length assumed (Triticum aestivum, UniProt A0A3B6KUA9); EMSA; double-stranded DNA, one strand shown; with: ZnCl2).
For `CTCAATTCTGTCCTATTTCTTGTGCATGAAACTTCTCCATCTTGTAATCG (dsDNA)`, binding read “binds” (VAL1 289-396 (Arabidopsis thaliana, UniProt Q8W4L5); EMSA; double-stranded DNA, one strand shown).
`CTACCTTAATTAGTTAGGTACTTTTCACGTTACCTTGAAACCTATAAAATATAGAC (dsDNA)`: binding “binds” (HY5 full length assumed (Arabidopsis thaliana, UniProt O24646); EMSA; double-stranded DNA, one strand shown).
Under binding, `CCCTCCCACCCCTGCCGCCACACACATCCAAC (dsDNA)` is recorded as “binds” (DREB1A 1-238 (Oryza sativa, UniProt Q64MA1); EMSA; double-stranded DNA, one strand shown).
`AGGAGCGTGACACGTAAGACAAAAAG (dsDNA)` — result for binding: “binds” (HY5/CaM2 1-158; 1-149 (Solanum lycopersicum); EMSA; double-stranded DNA, one strand shown; with: CaCl2 5 mM).
For `AGTTGGCAAGTC (dsDNA)`, binding read “no binding” (NFIB 14-176 K126A (Homo sapiens, UniProt O00712); BLI; double-stranded DNA, one strand shown; with: Zn2+ 1 mM).
With `CGAACGAACGAA (dsDNA)` the Kd was 9.03 ± 0.968 µM (Fibroin-modulator-binding protein-1; ITC; double-stranded DNA, one strand shown).
For `ATAAGTCACATGATGATATTTGATTTTATTATATTTTTAAAAAAAGTAAAAAATAAAAAGTAGTTTATTTTTAAAAAATAAAATTTAAAATATTTCACAAAATGATTTCCGAA (dsDNA)`, binding read “binds” (CENP-I 1-229 R225D (Thermochaetoides thermophila, UniProt G0SFF7); EMSA; double-stranded DNA, one strand shown).
`TCGTCAAAGCCTCTGACTTTGGATATCCCCGACCCCACTAAACTT (dsDNA)` — result for binding: “binds” (PHR2 1-426 (Oryza sativa, UniProt Q6Z156); EMSA; double-stranded DNA, one strand shown).
The binding intensity of `GSGAGSETVV` is reported as 0.143 (human MAGI1-3/6 PDZ construct (MBP fusion); automated holdup; peptide, crude extract; concentration not given, uncorrected, unit not given; reference: biotin control resin, higher = stronger binding).
For `TTGATAAGAGGTCATTTTTGCGGATGGCTTAGAGCTTAATTGCTGAATCTGGTGCTGTAGCTCAACATGTTTTAAATATGCAA (dsDNA)`, binding read “binds” (MGM101 23-269 (Saccharomyces cerevisiae, UniProt P32787); mass photometry; double-stranded DNA, one strand shown).
`GCTAGTTGGCGCGCGTGAACCCGCCGTTCGGGAAATTGCGT (dsDNA; blunt)` — result for binding: “no binding” (rcoM1 full length assumed (Paraburkholderia xenovorans, UniProt Q13YL3); fluorescence anisotropy; double-stranded DNA, one strand shown; Fe(II)-CO).
`CACAATGCAACACACAATAATCACACAGCAACACAATTTTCATTC (dsDNA)`: binding “no binding” (gbp (Glycine max, UniProt Q8LKV1); EMSA; double-stranded DNA, one strand shown).
For `AGCAAAAGTAATTTTTTTTAGAAAAGAAAAGAGTTAAAGA (dsDNA)`, binding read “binds” (NAC domain-containing protein full length assumed (Musa acuminata, UniProt A0A804JLK1); EMSA; double-stranded DNA, one strand shown).
`TATTTTTAAAACAAAAATATATTAACAAAAATCTAAAACTAAAATCTAAAATCTAGAAAC (dsDNA)` — result for binding: “binds” (LHY full length assumed (Arabidopsis thaliana, UniProt Q6R0H1); EMSA; double-stranded DNA, one strand shown).
`TGTTGTGTGGAATTGTGAGCGGATAACAATTTCACACAGG (dsDNA (Escherichia coli); blunt)`: binding “binds” (lacI full length assumed N125A/D149A (Escherichia coli, UniProt P03023); filter binding; double-stranded DNA, one strand shown).
For `CTGCTTTTGCTTTCCGTACTACCCAATTTCATAG (dsDNA)`, binding read “binds” (SPL2 1-415 (Malus domestica, UniProt D9ZJC1); EMSA; double-stranded DNA, one strand shown).
`ACCAAGCGGGATGCGGAGCCGCCGCCGCCGCTG (dsDNA; blunt)`: binding “no binding” (WT1 zinc finger domain 323-435 (Homo sapiens); EMSA; double-stranded DNA, one strand shown).
`AAAAAAAA (ssRNA)`: binding “no binding” (PABPN1 161-257 F215L/Y217L (Homo sapiens, UniProt Q86U42); pull-down; RNA).
The binding intensity of `GSGAGKESYV` is reported as 0.647 (human MAGI1-3/6 PDZ construct (MBP fusion); automated holdup; peptide, purified PDZ protein; concentration not given, unit not given; reference: biotin control resin, higher = stronger binding).
Under binding, `ATATTTGGACCTCTTTGAGGTCTTCGTTGGAAACGGGATTTCCTCATATAATGTTACACA (dsDNA)` is recorded as “binds” (CENPI 57-281 (Homo sapiens, UniProt Q92674); competition; double-stranded DNA, one strand shown).
Under binding, `DNA 1 AAGGTGTGTGGGTGTGGTAATTTTTTTTTT / DNA 2 ATTACCACACCCACACACCTT (dsDNA; 3' 9 nt overhang)` is recorded as “binds” (RAP1/Yku70/Yku80 (Saccharomyces cerevisiae); EMSA; double-stranded DNA).
For `AGTCCGGGGGTTCCGTTAATGTTTAATCAGATAGGATC (dsDNA)`, binding read “binds” (HNF1A 1-631 C241S (Homo sapiens, UniProt P20823); SPR; double-stranded DNA, one strand shown; NaHS pretreated).
For `ACCAAGCGGGATGCTGAGCCGCCGCCGCCGCCG (dsDNA; blunt)`, binding read “no binding” (WT1 zinc finger domain 323-435 (Homo sapiens); EMSA; double-stranded DNA, one strand shown).
Under binding, `TTTTTTTTTTTTTTTTTTTTTTTTTTTTTTTTTTTTTTTTTTTTTTTTTTTTTTTTTTTTTTTTT (ssDNA)` is recorded as “binds” (ssb 2-178 (Escherichia coli, UniProt P0AGE0); EMSA; single-stranded DNA; with: ATPγS).
`GGTGGTGGTGGTGGTGGT (ssDNA)` — result for binding: “binds” (recA full length assumed F204E (Escherichia coli, UniProt P0A7G6); fluorescence anisotropy; single-stranded DNA; with: ATPγS).
`GTGTTCGGACTCTGCCTCAAGACGGTAGTCAACGTGCTTG (dsDNA)`: binding “no binding” (XRS2 1-325 K35E (Saccharomyces cerevisiae, UniProt P33301); EMSA; double-stranded DNA, one strand shown; abolished).
`TGTCACGTAGATCGAAACGGCATAGACAATTACTTA (dsDNA)` — result for binding: “no binding” (ERF-D2 full length assumed (Solanum lycopersicum, UniProt A0A3Q7JX06); EMSA; double-stranded DNA, one strand shown).
For `GGTTAGGGTTAG (ssDNA; 5'-phosphate)`, binding read “binds” (POT1 1-299 Y9A (Homo sapiens, UniProt Q9NUX5); EMSA; single-stranded DNA).
For `AAAAAAAAAAAAAAAA (ssRNA)`, binding read “binds” (EIF4A1 1-406 (Homo sapiens, UniProt P60842); fluorescence polarization; RNA; with: ATP, silvestrol 10 µM).
`CGGGAACUCGCGUAGACACGCCCG (structured RNA)` — result for binding: “binds” (RELA/NFKB1 RHR domains (Homo sapiens); EMSA; folded RNA).
`GACTCTTTGTTTGGC (dsDNA; blunt)`: binding “binds” (SOX2 39-118 (Homo sapiens, UniProt P48431); NMR; double-stranded DNA, one strand shown).
`UUAUUAUUUGUU (ssRNA)`: binding “binds” (pos-1 97-173 (Caenorhabditis elegans, UniProt G5EF15); NMR 15N-1H HSQC; RNA).
`UUUAUUUU (ssRNA)`: binding “binds” (Rc3h1 411-454 (Mus musculus, UniProt Q4VGL6); NMR; RNA).
Under binding, `CTTTGCCAAAG (dsDNA)` is recorded as “no binding” (Transcriptional regulator (NtrC family) 392-439 (Aquifex aeolicus, UniProt O67198); EMSA; double-stranded DNA, one strand shown).
With `CGTACGTACGTA (dsDNA)` the Kd was 3.36 ± 0.412 µM (Fibroin-modulator-binding protein-1; ITC; double-stranded DNA, one strand shown).
`GGGAGAACUUCGACCAGAAGUCCUACACUGCGCAUAAUACGUAACUAUCGACCUACCUUUAUGUGCGCAUACAUGGAUCCUC (ssRNA; 2'-fluoro pyrimidines)` has a relative binding of 8.8 RU (integrin alphaV/beta3 31-992/27-718 (Homo sapiens); SPR; RNA; with: MnCl2 1 mM; higher = more binding).
For `AAGGTGTGTGGGTGTGGTAAT (dsDNA)`, binding read “binds” (T1, Yku70/Yku80 (Saccharomyces cerevisiae); EMSA; double-stranded DNA, one strand shown; without Rap1).
Under binding, `GGCGGCGGCGGCGGCGGCGGCGGCGGCGGCGGCGGCGGC (ssRNA; 39 nt)` is recorded as “binds” (NR1I2 (Homo sapiens, UniProt O75469); EMSA; RNA; 200 nM RNA).
For `GGCGGCGGCATTGTCCGGCGCGCGG (dsDNA)`, binding read “binds” (Sox17 66-144 (Mus musculus, UniProt Q61473); EMSA; double-stranded DNA, one strand shown).

For quick reference, copied from above:
`TATTTTTAAAACAAAAATATATTAACAAAAATCTAAAACTAAAATCTAAAATCTAGAAAC (dsDNA)` — result for binding: “binds” (LHY full length assumed (Arabidopsis thaliana, UniProt Q6R0H1); EMSA; double-stranded DNA, one strand shown).
For `CTCAATTCTGTCCTATTTCTTGTGCATGAAACTTCTCCATCTTGTAATCG (dsDNA)`, binding read “binds” (VAL1 289-396 (Arabidopsis thaliana, UniProt Q8W4L5); EMSA; double-stranded DNA, one strand shown).
For `AAGGTGTGTGGGTGTGGTAAT (dsDNA)`, binding read “binds” (T1, Yku70/Yku80 (Saccharomyces cerevisiae); EMSA; double-stranded DNA, one strand shown; without Rap1).
